Published values gathered from unrelated publications.
Each line is one published result; not all experiments were run side by side. ± gives the spread as reported.

Compound = CCN(CC)CCCC(C)Nc1ccnc2cc(Cl)ccc12 (stereo not shown); tested on = Plasmodium falciparum; test system = Vero, K1 chloroquine-resistant; how to read = baseline: Vero CC50 over parasite IC50; endpoint = selectivity index; value = 1810
Compound = O=[N+]([O-])c1ccc(Oc2ccc(Cl)cc2Cl)cc1; tested on = Cyprinus carpio; assay = everted gut sac; test system = intestine; setting = concentration not given, 24 h, 23 °C; endpoint = concentration in serosal solution; value = 303000 ± 134000 ng/mL
Compound = NC(=O)N1c2ccccc2C=Cc2ccccc21; tested on = Danio rerio; test system = zebrafish, male; setting = waterborne exposure, 1 µg/L nominal, 7 d; endpoint = plasma concentration; value = 25.5 ng/mL
Compound = CN[C@@](C)(C[18F])C(=O)O; tested on = A549 tumour model; test system = host not given, bone; setting = 2 h, tumour-bearing; endpoint = tracer uptake; value = 1.9 %ID/g
Compound = COc1ccc(C(c2ccc(OC)cc2)C(Cl)(Cl)Cl)cc1; tested on = Cyprinus carpio; assay = everted gut sac; test system = intestine; setting = concentration not given, 24 h, 23 °C; endpoint = concentration in mucosal solution; value = 57600 ± 4000 ng/mL
Compound = CSc1nc(NC(C)C)nc(NC(C)C)n1; tested on = Allium cepa; test system = root meristem; setting = 6000 mg/L, 72 h; endpoint = micronucleus frequency; value = 62.5 per 1000 cells
Compound = c1ccc(-c2ccccc2-c2ccccc2)cc1; tested on = Cyprinus carpio; assay = everted gut sac; test system = intestine; setting = concentration not given, 24 h, 23 °C; endpoint = concentration in mucosal solution; value = 24800 ± 6200 ng/mL
Compound = CC[C@H](C)[C@@H](CC(=O)N[C@@H](CCC(=O)O)CC(=O)O)NC(=O)C[C@@H](NC(=O)C[C@H](CCCN)NC(=O)C[C@H](Cc1c[nH]c2ccccc12)NC(=O)C[C@@H](NC(=O)C[C@H](CCC(=O)O)NC(=O)C[C@H](Cc1c[nH]c2ccccc12)NC(=O)C[C@@H](NC(=O)C[C@@H](N)CCCN)C(C)C)C(C)C)C(C)C; tested on = HIV-1; assay = MTT; test system = MT2, IIIB; setting = 5 days; how to read = baseline: CC50 over EC50; endpoint = selectivity index; value = 1.8
Compound = Cc1c[nH]c2ccccc12; tested on = Salmonella typhimurium; test system = TA98; setting = 48 (unit not given), added: human lung microsomes 0.5 mg + NADPH; how to read = baseline: DMSO; endpoint = lowest mutagenic concentration; value = 0.1 µM
Compound = CC[C@H](C)[C@H](NC(=O)[C@H](Cc1c[nH]c2ccccc12)NC(=O)[C@H](CCC(=O)O)NC(=O)[C@H](CCCCN)NC(=O)[C@@H](NC(=O)[C@H](CCCCN)NC(=O)[C@@H](N)CC(N)=O)C(C)C)C(=O)N[C@@H](CCCCN)C(=O)N[C@@H](Cc1ccc(O)cc1)C(=O)N[C@@H](CC(C)C)C(=O)N[C@@H](CCCCN)C(=O)N[C@@H](CO)C(=O)N[C@@H](CC(C)C)C(=O)N[C@@H](Cc1ccccc1)C(=O)N[C@@H](CO)C(=O)N[C@H]1CCOC1=O; tested on = Staphylococcus aureus; test system = ATCC 25923, resting cell suspension; setting = 200 µg/mL, 1 h, pH 7.0, 37 °C; endpoint = remaining peptide; value = 89.2%
Compound = CCN(N=O)c1ccccc1; tested on = Salmonella typhimurium, Escherichia coli; assay = preincubation Ames test; setting = concentration not given, with and without S9; endpoint = mutagenicity; value = positive
Compound = Cc1cc(NC2CCCCC2)nc(-n2nc(C)cc2C)n1; tested on = Plasmodium falciparum; test system = 3D7 stage III-V gametocytes; how to read = baseline: SH-SY5Y IC50 over gametocyte IC50; endpoint = selectivity ratio; value = ~7.8 fold
Compound = C[C@H]1CN(N=O)CCc2ccc(Cl)cc21; tested on = Salmonella typhimurium, Escherichia coli; assay = preincubation Ames test; setting = concentration not given, with and without S9; endpoint = mutagenicity; value = positive
Compound = Nc1ncnc2c([C@@H]3N[C@H](CO)[C@@H](O)[C@H]3O)c[nH]c12; tested on = Zika virus; test system = Huh-7, PRVABC-59; setting = unit not given; how to read = baseline: CC50 over EC90; endpoint = SI90; value = 14.9
Compound = CN(CCC(Oc1cccc2ccccc12)c1cccs1)N=O (stereo not shown); tested on = Salmonella typhimurium, Escherichia coli; assay = preincubation Ames test; setting = concentration not given, with and without S9; endpoint = mutagenicity; value = positive
Compound = O=C(NCCN1CCCC1)c1cc(-c2ccc(CN3CCOCC3)cc2)nc2ccc(F)cc12; tested on = Plasmodium falciparum; test system = human, whole blood; setting = oral, 400 mg, malaria volunteer infection study; endpoint = AUC(0-t); value = 9470 ng·h/mL
Compound = CN(CCC=C1c2ccccc2CCc2ccccc21)N=O; tested on = Salmonella typhimurium, Escherichia coli; assay = preincubation Ames test; setting = concentration not given, with and without S9; endpoint = mutagenicity; value = positive
Compound = CC1(C)C=Cc2c(ccc3c2[N+]([O-])=C2C(C)(C)[C@@H]4C[C@]56CCCN5C(=O)[C@]4(NC6=O)[C@H]4N5C(=O)[C@@]67CCCN6C(=O)[C@@]56[C@H](c5c([nH]c8c9c(ccc58)OC(C)(C)C=C9)C(C)(C)[C@@H]6C7)[C@]234)O1; tested on = Candida albicans; assay = cell growth, XTT; test system = DAY185; how to read = no inhibition up to value; endpoint = viability; value = > 200 µM
Compound = O=NN(c1ccccc1CC(=O)O)c1c(Cl)cccc1Cl; tested on = Salmonella typhimurium, Escherichia coli; assay = preincubation Ames test; setting = concentration not given, with and without S9; endpoint = mutagenicity; value = negative
Compound = C[C@H]1[C@@H](O)O[C@@H]2O[C@@]3(C)CC[C@H]4[C@H](C)CC[C@@H]1[C@@]24OO3; tested on = Plasmodium falciparum; test system = Vero, 3D7 chloroquine-sensitive; how to read = baseline: CC50 Vero over IC50 parasite; endpoint = selectivity ratio; value = 5500
Compound = CC(C)N(N=O)C(C)C; tested on = Salmonella typhimurium, Escherichia coli; assay = preincubation Ames test; setting = concentration not given, with and without S9; endpoint = mutagenicity; value = positive
Compound = COc1ccc(S(=O)(=O)N(CC(=O)O)c2ccc(N(CC(=O)O)S(=O)(=O)c3ccc(OC)cc3)c3ccccc23)cc1; tested on = Salmonella typhimurium; test system = TA98; setting = concentration not given, added: rat liver S9; how to read = baseline: vehicle; endpoint = revertant fold increase; value = > 2 fold

For quick reference, copied from above:
Compound = CC[C@H](C)[C@@H](CC(=O)N[C@@H](CCC(=O)O)CC(=O)O)NC(=O)C[C@@H](NC(=O)C[C@H](CCCN)NC(=O)C[C@H](Cc1c[nH]c2ccccc12)NC(=O)C[C@@H](NC(=O)C[C@H](CCC(=O)O)NC(=O)C[C@H](Cc1c[nH]c2ccccc12)NC(=O)C[C@@H](NC(=O)C[C@@H](N)CCCN)C(C)C)C(C)C)C(C)C; tested on = HIV-1; assay = MTT; test system = MT2, IIIB; setting = 5 days; how to read = baseline: CC50 over EC50; endpoint = selectivity index; value = 1.8
Compound = Cc1c[nH]c2ccccc12; tested on = Salmonella typhimurium; test system = TA98; setting = 48 (unit not given), added: human lung microsomes 0.5 mg + NADPH; how to read = baseline: DMSO; endpoint = lowest mutagenic concentration; value = 0.1 µM
